Assay results pooled from the literature.
Numbered parts are unrelated; each lists some results of a single study.
UniProt Q9BYP7, sequence (whole entry, looked up): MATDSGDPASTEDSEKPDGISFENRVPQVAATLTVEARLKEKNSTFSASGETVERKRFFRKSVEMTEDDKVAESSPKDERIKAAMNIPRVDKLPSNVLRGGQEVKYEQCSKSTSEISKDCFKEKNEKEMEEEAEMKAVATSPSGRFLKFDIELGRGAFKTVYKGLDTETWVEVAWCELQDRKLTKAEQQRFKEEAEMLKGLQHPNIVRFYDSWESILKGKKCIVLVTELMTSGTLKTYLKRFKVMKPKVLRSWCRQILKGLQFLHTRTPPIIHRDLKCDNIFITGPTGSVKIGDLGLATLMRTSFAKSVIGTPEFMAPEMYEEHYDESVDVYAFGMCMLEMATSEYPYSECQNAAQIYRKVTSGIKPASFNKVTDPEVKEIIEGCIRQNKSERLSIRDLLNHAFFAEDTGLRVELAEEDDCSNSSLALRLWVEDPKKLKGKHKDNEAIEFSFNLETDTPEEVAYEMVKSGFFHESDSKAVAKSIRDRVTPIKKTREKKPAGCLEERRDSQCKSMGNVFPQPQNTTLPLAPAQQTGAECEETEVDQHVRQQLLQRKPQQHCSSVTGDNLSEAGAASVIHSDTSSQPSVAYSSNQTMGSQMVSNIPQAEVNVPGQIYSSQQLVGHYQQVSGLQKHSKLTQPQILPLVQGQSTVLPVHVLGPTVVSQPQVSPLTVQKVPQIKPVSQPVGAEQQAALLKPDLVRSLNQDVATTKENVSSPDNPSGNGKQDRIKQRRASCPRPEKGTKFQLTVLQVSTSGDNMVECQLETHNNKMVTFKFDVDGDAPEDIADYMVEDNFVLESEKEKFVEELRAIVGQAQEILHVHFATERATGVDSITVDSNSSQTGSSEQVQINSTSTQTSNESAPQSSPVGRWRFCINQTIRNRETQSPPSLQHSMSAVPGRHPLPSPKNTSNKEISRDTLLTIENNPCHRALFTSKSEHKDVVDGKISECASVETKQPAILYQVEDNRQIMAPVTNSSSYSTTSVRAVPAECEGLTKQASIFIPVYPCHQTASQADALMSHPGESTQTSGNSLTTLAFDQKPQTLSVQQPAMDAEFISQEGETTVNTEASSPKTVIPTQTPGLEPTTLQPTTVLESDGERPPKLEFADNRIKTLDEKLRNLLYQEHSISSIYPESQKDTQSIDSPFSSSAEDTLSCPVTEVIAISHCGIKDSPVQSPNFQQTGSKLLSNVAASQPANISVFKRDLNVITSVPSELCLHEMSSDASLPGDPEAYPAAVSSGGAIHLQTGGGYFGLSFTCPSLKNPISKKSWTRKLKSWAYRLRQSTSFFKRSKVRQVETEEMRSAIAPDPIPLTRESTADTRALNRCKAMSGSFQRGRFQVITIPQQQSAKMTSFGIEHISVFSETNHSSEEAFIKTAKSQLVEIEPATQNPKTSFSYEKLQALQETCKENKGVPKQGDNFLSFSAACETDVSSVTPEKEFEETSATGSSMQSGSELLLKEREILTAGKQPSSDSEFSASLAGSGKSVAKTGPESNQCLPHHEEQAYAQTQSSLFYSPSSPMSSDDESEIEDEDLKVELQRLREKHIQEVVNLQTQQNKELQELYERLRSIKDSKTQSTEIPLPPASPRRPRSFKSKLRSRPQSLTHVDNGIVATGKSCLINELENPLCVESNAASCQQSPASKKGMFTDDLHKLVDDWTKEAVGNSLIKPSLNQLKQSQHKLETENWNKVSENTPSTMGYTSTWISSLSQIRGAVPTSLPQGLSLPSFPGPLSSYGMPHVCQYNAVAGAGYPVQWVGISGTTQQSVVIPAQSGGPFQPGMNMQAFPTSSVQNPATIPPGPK
UniProt Q9Y6R4, sequence (whole entry, looked up): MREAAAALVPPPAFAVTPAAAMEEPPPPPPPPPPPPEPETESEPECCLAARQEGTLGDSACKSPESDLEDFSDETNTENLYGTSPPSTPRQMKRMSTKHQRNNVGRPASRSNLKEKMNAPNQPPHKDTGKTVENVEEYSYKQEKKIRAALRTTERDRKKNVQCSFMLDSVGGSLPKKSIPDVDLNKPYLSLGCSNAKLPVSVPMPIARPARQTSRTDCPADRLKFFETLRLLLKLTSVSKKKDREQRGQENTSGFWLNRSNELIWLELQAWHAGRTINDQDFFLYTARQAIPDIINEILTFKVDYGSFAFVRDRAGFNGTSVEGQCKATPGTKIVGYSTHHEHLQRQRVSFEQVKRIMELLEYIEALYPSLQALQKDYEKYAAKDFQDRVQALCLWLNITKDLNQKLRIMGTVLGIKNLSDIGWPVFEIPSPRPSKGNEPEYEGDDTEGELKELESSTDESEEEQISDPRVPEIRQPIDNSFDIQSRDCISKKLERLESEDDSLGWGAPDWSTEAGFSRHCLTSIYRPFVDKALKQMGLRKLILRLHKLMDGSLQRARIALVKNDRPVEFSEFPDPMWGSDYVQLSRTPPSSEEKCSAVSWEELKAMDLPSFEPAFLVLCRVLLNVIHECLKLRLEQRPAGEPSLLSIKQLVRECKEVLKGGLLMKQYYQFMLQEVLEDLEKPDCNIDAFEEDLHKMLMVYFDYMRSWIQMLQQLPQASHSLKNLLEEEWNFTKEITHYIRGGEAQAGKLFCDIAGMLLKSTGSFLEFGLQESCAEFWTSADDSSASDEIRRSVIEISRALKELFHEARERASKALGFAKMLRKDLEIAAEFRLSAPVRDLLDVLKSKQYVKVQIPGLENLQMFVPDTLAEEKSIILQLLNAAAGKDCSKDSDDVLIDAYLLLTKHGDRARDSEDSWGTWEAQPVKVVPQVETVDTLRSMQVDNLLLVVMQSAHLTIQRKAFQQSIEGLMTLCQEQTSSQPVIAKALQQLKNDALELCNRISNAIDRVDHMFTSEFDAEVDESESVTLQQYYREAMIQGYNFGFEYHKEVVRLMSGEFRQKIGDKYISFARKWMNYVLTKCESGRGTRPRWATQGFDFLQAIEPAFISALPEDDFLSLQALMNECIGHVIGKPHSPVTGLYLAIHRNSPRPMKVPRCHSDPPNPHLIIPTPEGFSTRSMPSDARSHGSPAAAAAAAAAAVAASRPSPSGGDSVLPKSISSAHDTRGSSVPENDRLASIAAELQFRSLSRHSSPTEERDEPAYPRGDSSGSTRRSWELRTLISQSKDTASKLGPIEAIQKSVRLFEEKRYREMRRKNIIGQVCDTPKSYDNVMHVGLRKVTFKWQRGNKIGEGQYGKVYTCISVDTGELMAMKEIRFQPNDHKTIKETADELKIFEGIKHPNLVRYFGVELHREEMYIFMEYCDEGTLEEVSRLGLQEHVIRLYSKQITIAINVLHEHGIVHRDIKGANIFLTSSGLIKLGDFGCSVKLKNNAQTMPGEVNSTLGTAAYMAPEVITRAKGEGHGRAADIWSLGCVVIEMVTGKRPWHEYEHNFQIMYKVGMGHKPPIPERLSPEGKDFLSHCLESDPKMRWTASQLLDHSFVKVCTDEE
UniProt Q96PF2, sequence (whole entry, looked up): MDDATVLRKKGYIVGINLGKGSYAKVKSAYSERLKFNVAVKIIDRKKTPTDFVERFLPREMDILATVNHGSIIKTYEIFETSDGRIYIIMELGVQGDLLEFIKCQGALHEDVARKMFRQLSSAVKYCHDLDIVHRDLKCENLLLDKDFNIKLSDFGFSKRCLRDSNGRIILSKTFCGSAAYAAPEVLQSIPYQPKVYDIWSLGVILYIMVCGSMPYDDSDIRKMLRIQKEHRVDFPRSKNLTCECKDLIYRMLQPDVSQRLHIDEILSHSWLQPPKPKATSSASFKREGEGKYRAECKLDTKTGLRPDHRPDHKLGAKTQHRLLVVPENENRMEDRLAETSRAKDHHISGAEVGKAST
UniProt Q13554, sequence (whole entry, looked up): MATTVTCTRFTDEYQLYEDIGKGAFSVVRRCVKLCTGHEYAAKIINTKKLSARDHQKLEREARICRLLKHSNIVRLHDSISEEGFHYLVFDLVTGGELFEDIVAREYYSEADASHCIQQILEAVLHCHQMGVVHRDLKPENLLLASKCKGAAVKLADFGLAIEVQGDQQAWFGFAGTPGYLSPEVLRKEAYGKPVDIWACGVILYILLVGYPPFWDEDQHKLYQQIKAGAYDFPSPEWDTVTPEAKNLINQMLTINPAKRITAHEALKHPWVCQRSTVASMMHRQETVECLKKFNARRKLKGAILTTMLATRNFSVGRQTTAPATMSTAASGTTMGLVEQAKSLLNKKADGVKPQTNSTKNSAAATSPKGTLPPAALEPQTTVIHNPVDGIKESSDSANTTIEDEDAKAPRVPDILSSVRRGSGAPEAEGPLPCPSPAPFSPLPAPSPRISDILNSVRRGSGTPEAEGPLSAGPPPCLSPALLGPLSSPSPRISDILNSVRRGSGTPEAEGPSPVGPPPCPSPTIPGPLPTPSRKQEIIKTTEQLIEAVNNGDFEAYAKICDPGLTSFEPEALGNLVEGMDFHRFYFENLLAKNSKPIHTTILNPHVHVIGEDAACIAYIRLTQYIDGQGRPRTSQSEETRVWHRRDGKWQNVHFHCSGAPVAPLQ

Study 1
SMILES: COc1cc2c(N3CCN(C(=O)Nc4ccc(OC(C)C)cc4)CC3)ncnc2cc1OCCCN1CCCCC1
Read-out: enzyme activity
Action: inhibitor
Concentration: 0.5 µM
Reference: control
target | remaining activity [%]
WNK3 (Homo sapiens, UniProt Q9BYP7) | 102
DYRK3 (Homo sapiens, UniProt O43781) | 109
RPS6KA6 (Homo sapiens, UniProt Q9UK32) | 106
EPHA4 (Homo sapiens, UniProt P54764) | 96.4
TSSK2 (Homo sapiens, UniProt Q96PF2) | 96.6
BLK (Homo sapiens, UniProt P51451) | 100
EPHB1 (Homo sapiens, UniProt P54762) | 96.6
Cyclin-dependent kinase 1, with cyclin B (CDK1, Homo sapiens, UniProt P06493) | 97.1
PDPK1 (Homo sapiens, UniProt O15530) | 96.8
MAPKAPK3 (Homo sapiens, UniProt Q16644) | 103
AXL (Homo sapiens, UniProt P30530) | 99
PHKG1 (Homo sapiens, UniProt Q16816) | 92.6
HIPK2 (Homo sapiens, UniProt Q9H2X6) | 91.8
Cyclin-dependent kinase 6, with cyclin D3 (CDK6, Homo sapiens, UniProt Q00534) | 92.7
SRMS (Homo sapiens, UniProt Q9H3Y6) | 95.8
CAMK2B (Homo sapiens, UniProt Q13554) | 99.9
Cyclin-dependent kinase 4, with cyclin D3 (CDK4, Homo sapiens, UniProt P11802) | 104
STK17A (Homo sapiens, UniProt Q9UEE5) | 103
EPHB4 (Homo sapiens, UniProt P54760) | 95
PRKACG (Homo sapiens, UniProt P22612) | 108
STK16 (Homo sapiens, UniProt O75716) | 103

Study 2
Species: mouse
Medium: microsomes or S9
Concentration: 2 µM
Time: 0.5 h
Structure (SMILES) | remaining compound [%]
CC(C)(C)C(=O)N1CC(C(=O)NC2CCCC2)C2(CCOCC2)C1 (stereo not drawn) | 54.7
O=S(=O)(NCCCOC1CCCCC1)c1ccc(Cl)c(-c2nnn[nH]2)c1 | 48.9
Cc1cccc(S(=O)(=O)Nc2nc3ncc(Br)nc3s2)c1 | 96.2
CCCSc1nc(OC)c(-c2ccccc2C)c(=O)n1C | 0.994
CC(C(=O)O)n1ccc2c(cnc3ncnn32)c1=O (stereo not drawn) | 77.6
O=c1[nH]ncc(Nc2ccc3[nH]ncc3c2)c1Br | 4.76
Cc1ccc(N2CC(c3nc(-c4cc5c(C)nn(-c6ccccc6)c5s4)no3)CC2=O)cc1 (stereo not drawn) | > 100
O=C(Cc1cccs1)NC1(C(=O)NC2CCCCC2)CCCCC1 | 0.227
CC(C)(C)c1ccccc1NC(=O)c1ccc(NC(=O)Nc2ccccc2)s1 | 19
NC1CCN(c2nc3c(cc2F)c(=O)c(C(=O)O)cn3-c2ccc(F)cn2)C1 (stereo not drawn) | > 99
COCCCn1cnnc1C(C)NC(=O)c1cnn[nH]1 (stereo not drawn) | 0
COC(=O)/C(=C/C(C)=C/c1cc(C(=O)OC)nc(O)n1)OC | 0.429
CCc1ccc(-n2c3nc(=O)[nH]c(=O)c-3cc3c(Cl)cccc32)cc1 | 20.6
O=c1[nH]ccc2c(Cc3nnc4ccc(-c5cccc6c5oc5ccccc56)nn34)cccc12 | 56.9
COC(=O)c1ccc(C2Nc3cc(C)c(C)cc3NC3=C2C(=O)CC(C)(C)C3)cc1 (stereo not drawn) | 0.113
CC(C)c1noc(CCCn2ccc(-c3ccc(Br)cc3)n2)n1 | > 100
O=C(NCC1=COCCO1)NC1CCc2c1ccc(Cl)c2Cl (stereo not drawn) | 10.9
c1ccc(-c2ncn(CCn3nnc4ccccc43)c2-c2ccsc2)cc1 | 2.67

Study 3
SMILES: O=C(Nc1cnc(Oc2ccc(F)cc2)nc1)N1CCc2ncccc2[C@@H]1c1ccc(F)cc1
Concentration: 1 µM
target | read-out | method | remaining binding [%]
WEE1 (Homo sapiens, UniProt P30291) | cell-free assay | competition with immobilised ligand | 85
STK10 (Homo sapiens, UniProt O94804) | cell-free assay | competition with immobilised ligand | 94
DYRK1B (Homo sapiens, UniProt Q9Y463) | cell-free assay | competition with immobilised ligand | 78
MAP3K6 (Homo sapiens, UniProt O95382) | cell-free assay | competition with immobilised ligand | 94
CDK13 (Homo sapiens, UniProt Q14004) | cell-free assay | competition with immobilised ligand | 100
FLT3 (Homo sapiens, UniProt P36888, D835V/ITD) | cell-free assay | competition with immobilised ligand | 100
Ribosomal protein S6 kinase alpha-2, N-terminal kinase domain (RPS6KA2, Homo sapiens, UniProt Q15349) | cell-free assay | competition with immobilised ligand | 97
MELK (Homo sapiens, UniProt Q14680) | cell-free assay | competition with immobilised ligand | 66
MKNK2 (Homo sapiens, UniProt Q9HBH9) | cell-free assay | competition with immobilised ligand | 94
TAOK3 (Homo sapiens, UniProt Q9H2K8) | cell-free assay | competition with immobilised ligand | 100
FLT3 (Homo sapiens, UniProt P36888, D835H) | cell-free assay | competition with immobilised ligand | 100
MAP3K15 (Homo sapiens, UniProt Q6ZN16) | cell-free assay | competition with immobilised ligand | 100
MAP3K1 (Homo sapiens, UniProt Q13233) | cell-free assay | competition with immobilised ligand | 89
BMPR1B (Homo sapiens, UniProt O00238) | cell-free assay | competition with immobilised ligand | 98
MARK4 (Homo sapiens, UniProt Q96L34) | cell-free assay | competition with immobilised ligand | 91
MAP3K4 (Homo sapiens, UniProt Q9Y6R4) | cell-free assay | competition with immobilised ligand | 89
BMPR2 (Homo sapiens, UniProt Q13873) | cell-free assay | competition with immobilised ligand | 88
CDC42BPB (Homo sapiens, UniProt Q9Y5S2) | cell-free assay | competition with immobilised ligand | 73
MAP2K1 (Homo sapiens, UniProt Q02750) | cell-free assay | competition with immobilised ligand | 93
STK36 (Homo sapiens, UniProt Q9NRP7) | cell-free assay | competition with immobilised ligand | 91
EPHA8 (Homo sapiens, UniProt P29322) | cell-free assay | competition with immobilised ligand | 88
EGFR (Homo sapiens, UniProt P00533, del747-750/T751S) | cell-free assay | competition with immobilised ligand | 100
PLK1 (Homo sapiens, UniProt P53350) | cell-free assay | competition with immobilised ligand | 80
CDK19 (Homo sapiens, UniProt Q9BWU1) |  | competition binding | 75
WNK3 (Homo sapiens, UniProt Q9BYP7) | cell-free assay | competition with immobilised ligand | 93

Study 4
Target: Calcium/calmodulin-dependent protein kinase type II subunit alpha (CAMK2A, Homo sapiens, UniProt Q9UQM7)
UniProt Q9UQM7, sequence (whole entry, looked up): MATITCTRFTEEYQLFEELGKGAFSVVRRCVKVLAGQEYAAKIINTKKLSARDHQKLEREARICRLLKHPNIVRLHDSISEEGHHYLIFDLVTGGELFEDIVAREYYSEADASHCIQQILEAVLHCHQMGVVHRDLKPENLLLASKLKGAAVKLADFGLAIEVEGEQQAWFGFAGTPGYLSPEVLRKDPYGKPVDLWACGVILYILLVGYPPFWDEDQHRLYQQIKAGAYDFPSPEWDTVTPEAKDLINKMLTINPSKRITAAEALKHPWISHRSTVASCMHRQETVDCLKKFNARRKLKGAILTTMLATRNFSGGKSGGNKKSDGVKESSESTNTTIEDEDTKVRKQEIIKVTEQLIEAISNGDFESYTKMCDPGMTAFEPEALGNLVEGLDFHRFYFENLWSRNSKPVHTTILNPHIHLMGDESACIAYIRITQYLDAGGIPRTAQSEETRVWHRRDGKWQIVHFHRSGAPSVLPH
Read-out: enzyme activity
Action: inhibitor
Concentration: 10 µM
Structure (SMILES) | inhibition [%]
CC1(C)[C@H]2CCC3=C[C@@](C)([C@@H](O)CO)CC[C@H]3[C@]2(C)CC[C@H]1O[C@@H]1O[C@H](CO)[C@@H](O)[C@H](O)[C@H]1O | -85
O=C(O)[C@@H]1CCCCN1 | 22
COc1cc(O)c2c(=O)c3c(O[C@@H]4O[C@H](CO)[C@@H](O)[C@H](O)[C@H]4O)ccc(O)c3oc2c1 | -6
N[C@@H](Cc1cc(I)c(O)c(I)c1)C(=O)O | -17
N[C@H]1CONC1=O | -11
COc1cc(/C=C/C(=O)OC[C@H]2O[C@H](O[C@]3(CO)O[C@H](CO)[C@@H](O)[C@@H]3OC(=O)/C=C/c3cc(OC)c(O)c(OC)c3)[C@H](O)[C@@H](O)[C@@H]2O)cc(OC)c1O | -2
Oc1ccc2[nH]ccc2c1 | -23
COc1cc(O)c2c(=O)c(-c3ccc(O)cc3)coc2c1 | 7
COc1cc2oc(=O)cc(-c3ccccc3)c2cc1O | -49
Nc1nc(-n2cc(C(=O)O)c(=O)c3cc(F)c(N4CC(O)C4)c(Cl)c32)c(F)cc1F | 4
CCCCCCCCCCCCN1CCCCCC1=O | -1

A few entries again (study 3):
target | read-out | method | remaining binding [%]
DYRK1B (Homo sapiens, UniProt Q9Y463) | cell-free assay | competition with immobilised ligand | 78
MKNK2 (Homo sapiens, UniProt Q9HBH9) | cell-free assay | competition with immobilised ligand | 94
Ribosomal protein S6 kinase alpha-2, N-terminal kinase domain (RPS6KA2, Homo sapiens, UniProt Q15349) | cell-free assay | competition with immobilised ligand | 97
MAP3K1 (Homo sapiens, UniProt Q13233) | cell-free assay | competition with immobilised ligand | 89
